Published values from different studies.
Protocols differ between the studies behind these lines. ± marks the error that the study gave. Converted amounts (≈) assume the structure as drawn. Ends that are not written are not given here. * marks the point of attachment.

`gamma-MSH` — result for “time to peak MAP response”: 38.5 ± 2.3 min (Sprague Dawley rat, urethane-anaesthetised; intravenous, 15 nmol).
For `COc1cc([C@H]2Oc3cc(O)cc(O[C@@H]4O[C@H](C(=O)O)[C@@H](O)[C@H](O)[C@H]4O)c3C[C@H]2O)ccc1O`, “LTP fEPSP slope” read 225 ± 15% (Tg2576 mouse old, hippocampal slices CA1; 300 nM, with: theta-burst stimulation; relative to: baseline).
`Cc1cc(-c2nnc(N)nc2-c2ccc(F)cc2)cc(Cl)n1` — result for “median progression-free survival”: 21 weeks (human mCRPC, high blood adenosine signature; dose not given, monotherapy or plus durvalumab).
`COc1ccc(-c2nc3ccccc3s2)cc1OCc1nnc(-c2ccccc2)o1` — result for “minimal effective dose”: 100 mg/kg (hind limb tonic extension; albino mouse, MES-induced seizure; ip, 4.0 h).
`O=C(CCCCCCC(=O)Nc1ccccc1)NO` — result for “median overall survival”: 30.8 months (human, refractory or recurrent neuroblastoma; dose not given, with: isotretinoin).
`COC(=O)C=Cc1ccc(O)c(O)c1` has a radical scavenging of 72% (DPPH; ethanol; 20 µM, 30 min, room temperature).
Under “differentially abundant proteins”, `CC(C)n1cnc(-c2ccc(F)cc2)c1-c1ncc(C(=O)Nc2ccc(N3CCN(C)CC3)cc2)[nH]1` is recorded as 8 (human patients, serum; 30 mg twice daily, Padj below 0.05, unit not given; relative to: placebo).
`O=C(NC[C@H]1CN(c2ccc(N3CCOCC3=O)cc2)C(=O)O1)c1ccc(Cl)s1` — result for “prothrombin time AUC(0-48h) increase”: ~19% (human, mild renal impairment, plasma; oral, 10 mg, with: erythromycin at steady state; relative to: same subjects, compound alone).
`CS/C(S)=N/CCCC[S+](C)[O-]` (racemic) — result for “mRNA fold change”: 0.691 (RT-PCR, item: Marcks; rat, liver; oral gavage, 200 mg/kg, 96 h, dosed for four days; relative to: vehicle).
`COc1ccc2c(c1)c(CC(=O)O)c(C)n2C(=O)c1ccc(Cl)cc1` has a cytokine level of 4.9 ± 1.5 pg/mL (multiplex bead immunoassay, item: IL-1β; CD-1 mice, serum; ip, 20 mg/kg, three-injection regimen, with: LPS 3 mg/kg).
Under “minimal effective dose”, `COc1ccc(-c2nc3ccccc3s2)cc1OCc1nnc(-c2ccc([N+](=O)[O-])cc2)o1` is recorded as 30 mg/kg (hind limb tonic extension; albino mouse, MES-induced seizure; ip, 4.0 h).
For `zoledronic acid`, the serum calcium was 12.8 mg/dL (human; 5 mg, with: calcitonin 4 units/kg 2 doses).
Under “minimal effective dose”, `COc1ccc(-c2nc3ccccc3s2)cc1OCc1nnc(C(c2ccccc2)c2ccccc2)o1` is recorded as 100 mg/kg (hind limb tonic extension; albino mouse, MES-induced seizure; ip, 4.0 h).
For `Cc1cccc2cc3c(cc12)c(C)cc1ccccc13`, the non-protective dose was 0.5 mg (adrenal apoplexy prevention; rat; oral, with: 7,12-DMBA 5 mg i.v.).
`neuropeptide Y`: “time to peak response” 2.7 ± 0.2 min (mean arterial pressure; rat Sprague Dawley urethane-anaesthetized; intravenous, 5 nmol).
`Nc1cc2c3ccccc3ccc2c2ccccc12` has a non-protective dose of 0.5 mg (adrenal apoplexy prevention; rat; oral, with: 7,12-DMBA 5 mg i.v.).
`CC[C@@H](C(=O)Nc1ccc(C(N)=O)c(F)c1)n1cc(OC)c(-c2cc(Cl)ccc2-n2cc(C(F)(F)F)nn2)cc1=O` has an EC150 of 0.61 µM (APTT prolongation; human plasma).
`insulin aspart`: “AUC glucose infusion rate” 745 mg/kg (euglycaemic clamp; type 1 diabetes patients; subcutaneous, 0.2 U/kg single, 2 h to 12 h, antibody quartile 2, 3.12-6.53 %B/T).
Under “plasma 2-HG reduction AUEC0-24”, `CC(C)(O)CNc1nc(Nc2ccnc(C(F)(F)F)c2)nc(-c2cccc(C(F)(F)F)n2)n1` is recorded as 73.9% (item: 2-hydroxyglutarate; human newly diagnosed mIDH AML; oral, 100 mg once daily, induction cycle 1 day 8, with: induction chemotherapy).
`SIIVFEKL`: “IL-2 only cells” 5.55% (flow cytometry, item: CD44hi CD8+ T cells; peptide, OT-I CD8+ T cells, mouse; dose not given, primed 5 days, restimulated 100 ng/mL OVA257, with: no TGF-β1).
`O=C1NC(=O)C(c2ccccc2)(c2ccccc2)N1`: “minimal effective dose” 30 mg/kg (hind limb tonic extension; albino mouse, MES-induced seizure; ip, 0.5 h).
Under “tumour to muscle ratio”, `CCN(CC)c1ccc2nc3ccc(N=Nc4ccc(N(C)CCCC(=O)NCCCC[C@H](NC(=O)CNC(=O)[C@H](CCCNC(=N)N)NC(=O)[C@@H](NC(=O)CNC(=O)[C@H](CC(C)C)NC(=O)[C@@H]5CCCN5C(=O)CNC(=O)CCCCC[N+]5=C(C=CC=CC=C6N(CC)c7ccc8c(S(=O)(=O)[O-])cc(S(=O)(=O)O)cc8c7C6(C)C)C(C)(C)c6c5ccc5c(S(=O)(=O)[O-])cc(S(=O)(=O)O)cc65)C(C)C)C(=O)NCC(=O)NCC(=O)NCCOCCOCCOCCOCCOCCOCCOCCOCCOCCOCCOCCO)cc4)cc3[n+](-c3ccccc3)c2c1` is recorded as 6.27 ± 1.46 (ex vivo fluorescence imaging; nude mice SCC-7 tumour; iv, 10 nmol/mouse, 2 h).
`DWFKAFYDKVAEKFKEAF (N-acetyl, C-amide)` — result for “aortic lesion area”: “decreased” (Oil Red O en face; peptide, female apoE-null mice, aorta; retro-orbital, 100 µg three times weekly, 6 weeks; relative to: control group).
The GST activity of `CC(C)=CCOc1c2occc2cc2ccc(=O)oc12` is reported as 300% (female SENCAR mice, liver cytosol; oral, 70 mg/kg, 4 days, with: DCNB substrate; relative to: corn oil vehicle, maximum induction).
`COc1ccc(Cl)cc1C(=O)NCCc1ccc(S(=O)(=O)NC(=O)NC2CCCCC2)cc1` gave an SOD activity of 8.71 ± 0.57 U/mg protein (STZ-induced diabetic rat, liver; oral, 0.5 mg/kg, day 28).
`CCCCCCCC/C=C\CCCCCCCC(=O)O`: “serum total bilirubin” 2.4 mg/dL (neonatal hUGT1 mice; oral, dose not given, 48 h).
`COCCc1ccc(OCC(O)CNC(C)C)cc1` (stereo not shown) has an SOD activity of 164 ± 12 U/L (rats, adrenaline arrhythmia, plasma; intragastric, 2.57 g/kg daily, 14 days).
Under “minimal effective dose”, `COc1ccc(-c2nc3ccccc3s2)cc1OCc1nnc(-c2ccc(O)cc2)o1` is recorded as 30 mg/kg (hind limb tonic extension; albino mouse, MES-induced seizure; ip, 0.5 h).
For `CNS(=O)(=O)Nc1nccc(Cc2c(C)c3ccc(Oc4ncccn4)cc3oc2=O)c1F`, “FAK Tyr397 phosphorylation” read “increased” (immunohistochemistry, item: phospho-FAK Tyr397; human tumour patients, tumour biopsy; dose not given, with: defactinib; relative to: after single dose of compound).
`COc1ccc(-c2nc3ccccc3s2)cc1OCc1nnc(-c2c(C)cccc2C)o1` — result for “minimal effective dose”: 100 mg/kg (hind limb tonic extension; albino mouse, MES-induced seizure; ip, 0.5 h).
For `Palmitoyl-SMTSCAPS (N-palmitoyl; Palmitoyl = CCCCCCCCCCCCCCCC(=O)*)`, the tumour weight was 334 ± 47.5 mg (AsPC-1, male SCID mice, subcutaneous AsPC-1 xenograft; intratumoral, 500 µg/mouse/day, 3 weeks).
`O=C1O[C@H]([C@@H](O)CO)C(O)=C1O` has an IC50 of 40 ± 1.2 µM (superoxide scavenging, pyrogallol).
`Cc1c(OCC(F)(F)F)ccnc1C[S@@+]([O-])c1nc2ccccc2[nH]1`: “mean intragastric pH” 4.3 (healthy humans; oral, 60 mg, 0 to 24 h postdose, single dose).
`CC(C)C[C@H](NC(=O)CCOCCOCCOCCNC(=O)COCC(=O)Nc1ccc(Oc2ccc3c4nc5nc(nc6[nH]c(nc7nc(nc([nH]4)c3c2)-c2cc(C(C)(C)C)ccc2-7)c2ccc(C(C)(C)C)cc62)-c2ccc(C(C)(C)C)cc2-5)cc1)C(=O)N[C@@H](C)C(=O)N[C@@H](CCCNC(=N)N)C(=O)N[C@@H](CC(C)C)C(=O)N[C@@H](CC(C)C)C(=O)N[C@H](C(N)=O)[C@@H](C)O` — result for “time to tumour visibility”: 24 h (near-IR fluorescence imaging; nude mice, A-431 xenograft; intravenous, 10 mg/kg).
`CN1CCN(c2ccc(Nc3ncc4cc5n(c4n3)C3(CCCCC3)CNC5=O)nc2)CC1` — result for “onset of reduced HSC proliferation”: 4 h (item: EdU incorporation, S/G2/M cells; haematopoietic stem cells, mice; intraperitoneal, 50 or 100 mg/kg).
`COc1ccc(-c2nc3ccccc3s2)cc1OCc1nnc(-c2cc([N+](=O)[O-])cc([N+](=O)[O-])c2O)o1`: “minimal effective dose” 30 mg/kg (hind limb tonic extension; albino mouse, MES-induced seizure; ip, 0.5 h).
`COc1cccc2c1C(=O)c1c(O)c3c(c(O)c1C2=O)C[C@@](O)(C(=O)CO)C[C@@H]3O[C@H]1C[C@H](N)[C@H](O)[C@H](C)O1` gave a tumour volume of 63.3 ± 16.9 mm3 (mice bearing T47D xenografts; 5 mg/kg once weekly, 17 days after inoculation, treated 2 weeks).
For `c1ccc2c(c1)ccc1c3ccccc3ccc21`, “menadione reductase activity” read 15.9 enzyme units (inducer; female rat, liver; oral, 1 mg, 24 h, sesame oil vehicle).
With `Cc1cc(C)c(/C=C2\C(=O)Nc3ccccc32)[nH]1` the tumour area was 1.48 cm² (MRI; human; concentration not given, 5.9 months).
`Cc1cnc(-c2ccnc(C(C)(C)O)n2)cc1-n1c(C)cc(OCc2ncc(F)cc2F)c(Cl)c1=O` gave an IC80 of 0.0408 µg/mL (≈ 0.0794 µM) (IL-1β release, inhibitor; human, whole blood, ex vivo; plasma concentration, with: LPS).
`C[C@H]1C[C@H]2CSC(N)=N[C@@]2(c2nc(NC(=O)c3ccc(OC(F)F)cn3)cs2)CO1`: “change from baseline” -63.2% (item: CSF Aβx-42; healthy adults; 50 mg once daily, 14 days, day 15; relative to: placebo-adjusted baseline).
Under “minimal effective dose”, `COc1ccc(-c2nc3ccccc3s2)cc1OCc1nnc(-c2ccc(Br)cc2)o1` is recorded as 300 mg/kg (seizure protection; albino mouse, scPTZ-induced seizure; ip, 0.5 h).
`COc1cc2c(cc1OC)C(=O)C(CC1CCN(Cc3ccccc3)CC1)C2` (stereo not shown): “time in target quadrant” “increased” (Morris water maze; male Swiss mice, scopolamine model; oral, 5 mg/kg, day 7, with: scopolamine 1.5 mg/kg i.p.; relative to: scopolamine alone).
For `O=C(/C=C/c1ccc(O)c(O)c1)OCCc1ccccc1`, the radical scavenging was 57% (DPPH; ethanol; 20 µM, 30 min, room temperature).
`Cc1c2ccccc2c(C)c2c1ccc1ccccc12` — result for “menadione reductase activity”: 30 enzyme units (inducer; female rat, liver; oral, 1 mg, 24 h, sesame oil vehicle).
`O=C(/C=C/c1ccc(O)c(O)c1)OCCCCc1ccccc1` gave a radical scavenging of 69% (DPPH; ethanol; 20 µM, 30 min, room temperature).
`hen egg-white lysozyme` — result for “time to presentation”: 6 to 12 days (item: IL-2; T-cell hybridoma 1C5.1, C3H mice, lymph node cells; dose not given, after immunization).
With `Cn1cc(Nc2nccc(-c3ccc4c(c3)CN(C3COC3)CC[C@H]4NC(=O)c3cn(C(C)(C)C)nn3)n2)cn1` the inhibition was 66% (CD69 expression; naive B cells, healthy human volunteers, whole blood ex vivo; oral, 50 mg twice daily, 48 h, with: anti-IgD; relative to: pre-dose).
For `CCN(CC)C(=S)SSC(=S)N(CC)CC`, the dead cells was 7% (7-AAD flow cytometry; human whole blood; 30 µM, 4 h, 37 °C, with: LPS plus nigericin).

A few entries again:
`COc1ccc(-c2nc3ccccc3s2)cc1OCc1nnc(-c2cc([N+](=O)[O-])cc([N+](=O)[O-])c2O)o1`: “minimal effective dose” 30 mg/kg (hind limb tonic extension; albino mouse, MES-induced seizure; ip, 0.5 h).
`CC(C)C[C@H](NC(=O)CCOCCOCCOCCNC(=O)COCC(=O)Nc1ccc(Oc2ccc3c4nc5nc(nc6[nH]c(nc7nc(nc([nH]4)c3c2)-c2cc(C(C)(C)C)ccc2-7)c2ccc(C(C)(C)C)cc62)-c2ccc(C(C)(C)C)cc2-5)cc1)C(=O)N[C@@H](C)C(=O)N[C@@H](CCCNC(=N)N)C(=O)N[C@@H](CC(C)C)C(=O)N[C@@H](CC(C)C)C(=O)N[C@H](C(N)=O)[C@@H](C)O` — result for “time to tumour visibility”: 24 h (near-IR fluorescence imaging; nude mice, A-431 xenograft; intravenous, 10 mg/kg).
`DWFKAFYDKVAEKFKEAF (N-acetyl, C-amide)` — result for “aortic lesion area”: “decreased” (Oil Red O en face; peptide, female apoE-null mice, aorta; retro-orbital, 100 µg three times weekly, 6 weeks; relative to: control group).
`Nc1cc2c3ccccc3ccc2c2ccccc12` has a non-protective dose of 0.5 mg (adrenal apoplexy prevention; rat; oral, with: 7,12-DMBA 5 mg i.v.).
For `COc1cc([C@H]2Oc3cc(O)cc(O[C@@H]4O[C@H](C(=O)O)[C@@H](O)[C@H](O)[C@H]4O)c3C[C@H]2O)ccc1O`, “LTP fEPSP slope” read 225 ± 15% (Tg2576 mouse old, hippocampal slices CA1; 300 nM, with: theta-burst stimulation; relative to: baseline).
For `O=C(/C=C/c1ccc(O)c(O)c1)OCCc1ccccc1`, the radical scavenging was 57% (DPPH; ethanol; 20 µM, 30 min, room temperature).
`SIIVFEKL`: “IL-2 only cells” 5.55% (flow cytometry, item: CD44hi CD8+ T cells; peptide, OT-I CD8+ T cells, mouse; dose not given, primed 5 days, restimulated 100 ng/mL OVA257, with: no TGF-β1).
`CCCCCCCC/C=C\CCCCCCCC(=O)O`: “serum total bilirubin” 2.4 mg/dL (neonatal hUGT1 mice; oral, dose not given, 48 h).
